# Assay results collected from several papers.
# Compare with care: the assays were run in different laboratories. “And” joins repeats or separate records; there may be more than shown. Numbers after ± are the reported error.
SMILES,assay,system,setting,how to read,measurement,result
CC(C)Cc1ccc(C(C)C(=O)N[C@@H](CCCCNC(=O)CCOCCOCCOCCOCCOCCOCCNC(=O)CN2CCN(CC(=O)[O-])CCN(CC(=O)[O-])CCN(CC(=O)[O-])CC2)C(=O)Nc2cccc3c(C(=O)NCC(=O)N4CC(F)(F)C[C@H]4C#N)ccnc23)cc1.[177Lu+3] (some centres unmarked),,human serum,"24 h, 37 °C, 177Lu-labelled",,radiochemical stability,96.3 ± 1%
CN1C(=O)[C@@H](Cc2ccc(O)c(I)c2)NC(=O)CNC(=O)[C@H](Cc2ccc3ccccc3c2)NC(=O)[C@H](CCCNC(=N)N)NC(=O)[C@H]1CCCNC(=O)c1ccc(CNC(=O)CN2CCN(CC(=O)O)CCN(CC(=O)O)CCN(CC(=O)O)CC2)cc1 [lutetium-177 labelled],1,"human, extrapolated from mouse, breasts",,,total absorbed dose,0.0018 mGy/MBq
C=CC(=O)Nc1ccc(OC)c(-c2c[nH]c3ncc(-c4cncc(C(=O)N(C)C)c4)cc23)c1,HPLC,acetonitrile/water/DMSO,"50 µM, 37 °C, DIPEA 20 eq, with: N-α-acetyl-lysine",,reactivity half-life,> 24 h
CC(C(=O)O)n1nc(Cn2cc3cc(OCC[18F])c(Cl)cc3n2)c2ccccc2c1=O (racemic),,"rat, muscle",2 h,,tracer uptake,0.04 %ID/g
O=C(O)c1c(O)cc(O[C@@H]2O[C@H](CO)[C@@H](O)[C@H](O)[C@H]2O)cc1/C=C/c1ccccc1,,FVB mouse,"40 mg/kg, 2 weeks",baseline: vehicle,serum AST,no effect
CC(C)(O)c1ncc([S@](N)(=O)=NC(=O)Nc2c3c(cc4c2CCC4)CCC3)s1,refers to: any adverse event,healthy human volunteers,"oral, 50 mg twice daily, 14 days, enteric-coated tablet",,subjects with adverse events,86%
O=C(Nc1cnccc1-c1ccc([18F])nc1)c1ccnc(NC(=O)C2CC2)c1,,"FVB/NJ mice (both sexes), small intestine","intravenous, dose not given, 120 min",,SUV,1.99
CC(C)(C)NCC(SS(=O)(=O)O)c1ccccc1 (centres unmarked),,"Swiss Webster mice, Schistosoma mansoni-infected","100 mg/kg x 2 doses from day 42 post-infection, perfusion day 56 post-infection",baseline: vehicle,body weight decrease,-5%
Cc1n[nH]c(C)c1CCCOc1cc(C(=O)NCCCCC(NC(=O)CN2CCN(CC(=O)[O-])CCN(CC(=O)[O-])CCN(CC(=O)[O-])CC2)C(=O)NCC2CCC(C(=O)NC(Cc3ccc4ccccc4c3)C(=O)NCCCCC(NC(=O)NC(CCC(=O)O)C(=O)O)C(=O)O)CC2)ccc1F.[177Lu+3] (centres unmarked),radio-HPLC,saline,"8 days, room temperature",,radiochemical purity,87.26 ± 0.87%
C/C(N)=N/C(=N\S(=O)(=O)c1ccc(C(F)(F)F)cc1)N1C[C@H](c2ccccc2)C(c2ccc(Cl)cc2)=N1,,"Beagle dog, plasma","oral, 36 mg/kg",,Cmax,2490 ng/mL
CCCCCCCC(=O)[O][Pt]([Cl])([Cl])[O]C(=O)CCCCCCC.N.N,"ICP-MS, refers to: platinum","nude mice, blood","intravenous, equimolar single dose",,clearance,3.47e-06 mg/(ng/mL)/h
CNc1cc(N)c(C(N)=O)c[n+]1C,"substrate, refers to: methylated product","rats, plasma","oral, 30 mg/kg, 4.00 h",,plasma concentration of product,173 nM and 195 nM
C=C(NC(=O)c1csc(-c2nc3c(cc2O)-c2nc(cs2)C(=O)NC(C(C)O)C(=O)NC(=C(C)OC)c2nc(cs2)C(=O)NC2c4nc(cs4)C(=O)NC(COC(=O)c4c5c6c(cccc6n4O)COC(=O)C(OC4CC(C)(O)C(N(C)C)C(C)O4)C2OC5)c2nc-3cs2)n1)C(N)=O (centres unmarked),,"cynomolgus monkey, male, plasma","intravenous infusion, 9 mg/kg single dose",,volume of distribution,1.6 L/kg
CN(O)C(=O)CCC(=O)NCCCN(CCCCN(CCCNC(=O)CCC(=O)N(C)O)C(=O)CCC(=O)N(C)O)C(=O)CCC(=O)N(C)O.[89Zr],,"mouse, bone",24 h,,tracer uptake,0.01 %ID/g
OC1(C(F)(F)F)CCN(c2nc(Nc3ccnc(C(F)(F)F)c3)nc(-c3cccc(C(F)(F)F)n3)n2)C1 (centres unmarked),,"Sprague-Dawley rat, plasma","intravenous, 1 mg/kg",,C0,321 ng/mL
Cc1cc(-c2ccc(C(=O)[C@@H]3CCCC[C@H]3C(=O)Nc3cnn4c3C(=O)NCC4)cc2)[nH]n1,,"human, urine","oral, 200 mg, 12-24 h",baseline: dose,recovery of radioactivity per interval,0.62%
CN([O-])C(=O)CN1CCNCCN(CC(=O)N(C)[O-])CC1.[89Zr+4],,"mouse, pancreas","intravenous, 1 h",,tracer uptake,0.2 %ID/g
C=CC(=O)Nc1cc(Nc2nccc(-c3cn(C)c4ccccc34)n2)c(OC)cc1N(C)CCNC,storage stability,human plasma,"72 h, -80 °C, LLOQ level",,recovery,92.3%
COc1cccc(OC)c1-c1cc(C(=O)NC2(C(=O)O)C3CC4CC(C3)CC2C4)nn1-c1ccc(C(=O)N(C)CCCN(C)C(=O)[C@H](CCCCNC(=O)[C@H](CC(C)C)NC(=O)C2OC2C(=O)O)NC(=O)CN2CCN(CC(=O)[O-])CCN(CC(=O)[O-])CCN(CC(=O)[O-])CC2)cc1C(C)C.[177Lu+3] (mixture of isomers),,"mouse HT-29 xenograft, small intestine","168 h post injection, biodistribution",,tissue uptake,0.039 %ID/g
CCCCN1C(=O)c2cccc3c(NCCCCCN4CCOCC4)ccc(c23)C1=O,,methanol,,,Stokes shift,91 nm
O=C(Nc1cnccc1-c1ccc([18F])cc1)c1ccnc(NC(=O)C2CC2)c1,ex vivo gamma counting,"GSK-3β transgenic mice, late-stage, muscle","intravenous, 120 min",,mean SUV,0.16
CCCCN1C(=O)c2cccc3c(NCCN4CCOCC4)ccc(c23)C1=O,,ethyl acetate,,,Stokes shift,86 nm
CC(C)C[C@@H](NC(=O)[C@H](NC(=O)[C@H]1CCCN1)[C@H](C)O)C(=O)N[C@H](Cc1c[nH]cn1)C(=O)N[C@@H](C(=O)N[C@H](Cc1c[nH]cn1)C(=O)N[C@H](CC(N)=O)C(=O)N[C@H](CCCNC(=N)N)C(=O)N[C@H](CCCNC(=N)N)C(=O)N[C@H](CCCNC(=N)N)C(=O)N[C@H](CCCNC(=N)N)C(=O)N[C@H](CCCNC(=N)N)C(N)=O)[C@H](C)O,,"Beagle dog, blood","oral, 3 mg/kg daily, 3 months",,glucose,5.2 mmol/L
COc1ccc(/C=C/c2nc3c(Cl)ncnc3[nH]2)cc1OC,HPLC,"solution, dark",before light exposure,,purity,99.4%
N#C[C@@H]1CC(F)(F)CN1C(=O)CNC(=O)c1ccnc2c(NC(=O)[C@@H](N)CCCCNC(=O)CCOCCOCCOCCOCCOCCOCCNC(=O)CN3CCN(CC(=O)[O-])CCN(CC(=O)[O-])CCN(CC(=O)[O-])CC3)cccc12.[177Lu+3],,human serum,"4 h, 37 °C, 177Lu-labelled",,radiochemical stability,99.12 ± 0.6%
OCC1OC(n2cnc3c(NCc4ccc(Br)s4)ncnc32)C(O)C1O (centres unmarked),equilibrium dialysis,human plasma,"0.05 µg/mL, 4 h, pH 7.4",,fraction unbound,0.145
CCCCN1C(=O)c2cccc3c(NCCCCCCCCCCN4CCOCC4)ccc(c23)C1=O,,dichloromethane,,,fluorescence quantum yield,0.99
[2H]C([2H])([18F])Oc1cc(C(=O)OCC2CCN(CCCC)CC2)ccc1N,"radioligand hydrolysis, esterase inhibitor",rhesus monkey plasma,concentration not given,,inhibition,94 ± 2%
CCCCN1C(=O)c2cccc3c(NCCCCCCCCN4CCOCC4)ccc(c23)C1=O,,DMF,,,Stokes shift,88 nm
O=C(NCC1OC2CCC=CCCC2O1)c1ccc([18F])nc1 (centres unmarked),,"healthy female BALB/c nude mice, stomach","intravenous, 7.4 MBq per mouse, 5 min",,tissue uptake,4.1 ± 1.3 %ID/g
O=C1c2sc(-c3ccc(N4CCC(F)C4)nc3F)nc2CCN1c1cccnc1 (centres unmarked),,"CD1 mouse, plasma","i.v., dose not given, 1 h",,concentration,31.8 ng/mL and 29.8 ng/mL and 32 ng/mL
O=C([O-])CN1CCN(CC(=O)[O-])CCN(C(CO)C(O)CO)CCN(CC(=O)[O-])CC1.[Dy+3] (centres unmarked),,"cynomolgus monkey, muscle","dose not given, day 5",,lanthanide tissue concentration,0.079 ± 0.011 nmol/g

# For quick reference, copied from above:
SMILES,assay,system,setting,how to read,measurement,result
O=C(NCC1OC2CCC=CCCC2O1)c1ccc([18F])nc1 (centres unmarked),,"healthy female BALB/c nude mice, stomach","intravenous, 7.4 MBq per mouse, 5 min",,tissue uptake,4.1 ± 1.3 %ID/g
CN([O-])C(=O)CN1CCNCCN(CC(=O)N(C)[O-])CC1.[89Zr+4],,"mouse, pancreas","intravenous, 1 h",,tracer uptake,0.2 %ID/g
CC(C)Cc1ccc(C(C)C(=O)N[C@@H](CCCCNC(=O)CCOCCOCCOCCOCCOCCOCCNC(=O)CN2CCN(CC(=O)[O-])CCN(CC(=O)[O-])CCN(CC(=O)[O-])CC2)C(=O)Nc2cccc3c(C(=O)NCC(=O)N4CC(F)(F)C[C@H]4C#N)ccnc23)cc1.[177Lu+3] (some centres unmarked),,human serum,"24 h, 37 °C, 177Lu-labelled",,radiochemical stability,96.3 ± 1%
Cc1n[nH]c(C)c1CCCOc1cc(C(=O)NCCCCC(NC(=O)CN2CCN(CC(=O)[O-])CCN(CC(=O)[O-])CCN(CC(=O)[O-])CC2)C(=O)NCC2CCC(C(=O)NC(Cc3ccc4ccccc4c3)C(=O)NCCCCC(NC(=O)NC(CCC(=O)O)C(=O)O)C(=O)O)CC2)ccc1F.[177Lu+3] (centres unmarked),radio-HPLC,saline,"8 days, room temperature",,radiochemical purity,87.26 ± 0.87%
CC(C)(O)c1ncc([S@](N)(=O)=NC(=O)Nc2c3c(cc4c2CCC4)CCC3)s1,refers to: any adverse event,healthy human volunteers,"oral, 50 mg twice daily, 14 days, enteric-coated tablet",,subjects with adverse events,86%
